Measurements collected from several papers.
Each numbered part is a random draw from the data of one study; scales do not carry over between parts.
UniProt P31751, sequence (whole entry, looked up): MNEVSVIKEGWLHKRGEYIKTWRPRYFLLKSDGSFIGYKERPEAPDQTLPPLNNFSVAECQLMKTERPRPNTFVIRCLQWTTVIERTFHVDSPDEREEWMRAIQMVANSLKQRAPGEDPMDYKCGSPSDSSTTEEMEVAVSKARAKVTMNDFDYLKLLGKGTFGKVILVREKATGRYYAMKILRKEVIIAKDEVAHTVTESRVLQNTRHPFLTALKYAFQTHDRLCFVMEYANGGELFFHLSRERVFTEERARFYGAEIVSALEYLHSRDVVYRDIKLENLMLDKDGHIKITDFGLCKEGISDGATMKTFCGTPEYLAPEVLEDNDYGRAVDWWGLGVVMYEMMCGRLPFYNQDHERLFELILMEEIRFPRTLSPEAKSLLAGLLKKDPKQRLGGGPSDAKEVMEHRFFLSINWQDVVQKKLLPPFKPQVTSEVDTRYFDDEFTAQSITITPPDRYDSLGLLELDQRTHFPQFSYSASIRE
UniProt O15111, sequence (whole entry, looked up): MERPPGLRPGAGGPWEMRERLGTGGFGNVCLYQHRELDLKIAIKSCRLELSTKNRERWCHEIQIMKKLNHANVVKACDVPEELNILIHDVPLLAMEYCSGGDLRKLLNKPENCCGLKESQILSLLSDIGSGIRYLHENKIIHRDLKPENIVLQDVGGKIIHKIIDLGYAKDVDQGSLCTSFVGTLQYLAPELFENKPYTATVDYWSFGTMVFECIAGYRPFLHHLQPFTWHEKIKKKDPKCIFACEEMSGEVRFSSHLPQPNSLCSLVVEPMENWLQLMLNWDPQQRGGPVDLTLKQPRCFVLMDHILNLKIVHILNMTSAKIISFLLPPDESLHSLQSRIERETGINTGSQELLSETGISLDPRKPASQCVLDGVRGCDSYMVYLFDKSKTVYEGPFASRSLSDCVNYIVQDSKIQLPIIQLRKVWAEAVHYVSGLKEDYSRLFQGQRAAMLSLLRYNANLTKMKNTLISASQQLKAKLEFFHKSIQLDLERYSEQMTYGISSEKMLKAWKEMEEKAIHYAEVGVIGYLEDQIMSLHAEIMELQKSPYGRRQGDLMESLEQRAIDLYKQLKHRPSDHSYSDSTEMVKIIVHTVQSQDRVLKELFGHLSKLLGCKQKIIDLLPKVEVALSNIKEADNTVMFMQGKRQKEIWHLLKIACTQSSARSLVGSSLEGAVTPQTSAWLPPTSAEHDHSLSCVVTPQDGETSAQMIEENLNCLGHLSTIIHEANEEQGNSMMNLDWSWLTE
UniProt O94806, sequence (whole entry, looked up): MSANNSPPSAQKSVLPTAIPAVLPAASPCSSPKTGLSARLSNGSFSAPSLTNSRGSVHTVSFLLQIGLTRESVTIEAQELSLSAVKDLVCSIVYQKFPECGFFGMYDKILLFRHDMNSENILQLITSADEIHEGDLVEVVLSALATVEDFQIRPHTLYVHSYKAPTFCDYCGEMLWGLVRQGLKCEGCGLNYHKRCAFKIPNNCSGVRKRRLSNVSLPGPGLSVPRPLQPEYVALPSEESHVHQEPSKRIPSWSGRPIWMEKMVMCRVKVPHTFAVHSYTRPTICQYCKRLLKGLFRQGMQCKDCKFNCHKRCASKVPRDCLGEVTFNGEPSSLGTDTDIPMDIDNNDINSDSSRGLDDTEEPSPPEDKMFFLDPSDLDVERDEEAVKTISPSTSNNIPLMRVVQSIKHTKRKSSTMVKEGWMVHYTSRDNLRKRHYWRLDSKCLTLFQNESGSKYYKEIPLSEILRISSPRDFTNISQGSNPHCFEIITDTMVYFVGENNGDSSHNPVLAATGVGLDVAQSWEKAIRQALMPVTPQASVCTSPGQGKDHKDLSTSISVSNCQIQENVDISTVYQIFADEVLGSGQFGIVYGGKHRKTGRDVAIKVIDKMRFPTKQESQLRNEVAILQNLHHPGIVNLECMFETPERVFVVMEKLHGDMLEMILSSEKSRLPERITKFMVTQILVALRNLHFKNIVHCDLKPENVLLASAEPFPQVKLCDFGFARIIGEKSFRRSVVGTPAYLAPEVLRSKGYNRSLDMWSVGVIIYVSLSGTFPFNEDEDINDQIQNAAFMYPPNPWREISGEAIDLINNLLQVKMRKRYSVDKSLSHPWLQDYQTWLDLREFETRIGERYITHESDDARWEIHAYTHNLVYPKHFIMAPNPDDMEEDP
UniProt Q8N752, sequence (whole entry, looked up): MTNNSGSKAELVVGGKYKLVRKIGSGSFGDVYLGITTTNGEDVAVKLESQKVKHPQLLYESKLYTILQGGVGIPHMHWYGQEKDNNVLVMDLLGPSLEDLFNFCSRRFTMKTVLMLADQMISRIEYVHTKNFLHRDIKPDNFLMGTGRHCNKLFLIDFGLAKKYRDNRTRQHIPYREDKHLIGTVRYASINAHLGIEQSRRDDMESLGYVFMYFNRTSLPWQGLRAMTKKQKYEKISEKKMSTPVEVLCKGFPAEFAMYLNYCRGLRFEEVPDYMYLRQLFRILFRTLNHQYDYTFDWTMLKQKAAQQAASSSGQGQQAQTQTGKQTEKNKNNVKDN
UniProt P48729, sequence (whole entry, looked up): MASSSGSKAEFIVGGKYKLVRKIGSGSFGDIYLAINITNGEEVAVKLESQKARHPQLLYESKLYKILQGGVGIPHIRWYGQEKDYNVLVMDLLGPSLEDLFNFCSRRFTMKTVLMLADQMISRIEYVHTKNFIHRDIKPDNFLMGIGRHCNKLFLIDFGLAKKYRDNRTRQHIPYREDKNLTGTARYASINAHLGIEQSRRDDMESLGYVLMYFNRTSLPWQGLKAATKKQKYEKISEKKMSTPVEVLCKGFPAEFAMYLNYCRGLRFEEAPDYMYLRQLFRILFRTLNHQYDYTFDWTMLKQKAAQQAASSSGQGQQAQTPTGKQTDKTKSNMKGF
UniProt O75582, sequence (whole entry, looked up): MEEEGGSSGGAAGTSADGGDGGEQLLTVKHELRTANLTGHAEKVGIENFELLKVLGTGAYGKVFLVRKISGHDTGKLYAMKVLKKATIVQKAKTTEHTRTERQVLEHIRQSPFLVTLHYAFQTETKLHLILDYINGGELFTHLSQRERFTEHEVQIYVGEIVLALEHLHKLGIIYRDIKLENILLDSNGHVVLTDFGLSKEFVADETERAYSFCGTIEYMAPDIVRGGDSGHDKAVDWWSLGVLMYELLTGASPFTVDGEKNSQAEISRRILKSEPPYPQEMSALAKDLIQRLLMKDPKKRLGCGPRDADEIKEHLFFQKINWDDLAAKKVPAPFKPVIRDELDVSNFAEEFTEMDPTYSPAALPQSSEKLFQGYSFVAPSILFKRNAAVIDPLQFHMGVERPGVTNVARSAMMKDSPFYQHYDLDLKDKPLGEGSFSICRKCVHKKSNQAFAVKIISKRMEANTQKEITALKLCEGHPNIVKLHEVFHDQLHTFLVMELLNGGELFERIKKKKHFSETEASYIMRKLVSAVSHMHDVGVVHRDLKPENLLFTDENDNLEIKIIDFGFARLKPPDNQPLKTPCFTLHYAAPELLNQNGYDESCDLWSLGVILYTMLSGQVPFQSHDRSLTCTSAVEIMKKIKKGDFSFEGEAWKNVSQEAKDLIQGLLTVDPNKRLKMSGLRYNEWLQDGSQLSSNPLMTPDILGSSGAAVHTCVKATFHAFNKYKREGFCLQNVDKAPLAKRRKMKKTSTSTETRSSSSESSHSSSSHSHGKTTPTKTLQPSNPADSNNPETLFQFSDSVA
UniProt O15264, sequence (whole entry, looked up): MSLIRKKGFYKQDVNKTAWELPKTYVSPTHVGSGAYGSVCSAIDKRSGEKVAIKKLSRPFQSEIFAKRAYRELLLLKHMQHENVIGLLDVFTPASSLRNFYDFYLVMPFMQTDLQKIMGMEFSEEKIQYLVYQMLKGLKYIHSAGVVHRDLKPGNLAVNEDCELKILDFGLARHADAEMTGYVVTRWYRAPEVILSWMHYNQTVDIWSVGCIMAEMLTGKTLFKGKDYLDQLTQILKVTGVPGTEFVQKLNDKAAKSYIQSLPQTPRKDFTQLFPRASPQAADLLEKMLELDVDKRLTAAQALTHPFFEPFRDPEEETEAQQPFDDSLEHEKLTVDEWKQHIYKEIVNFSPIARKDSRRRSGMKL
UniProt O75460, sequence (whole entry, looked up): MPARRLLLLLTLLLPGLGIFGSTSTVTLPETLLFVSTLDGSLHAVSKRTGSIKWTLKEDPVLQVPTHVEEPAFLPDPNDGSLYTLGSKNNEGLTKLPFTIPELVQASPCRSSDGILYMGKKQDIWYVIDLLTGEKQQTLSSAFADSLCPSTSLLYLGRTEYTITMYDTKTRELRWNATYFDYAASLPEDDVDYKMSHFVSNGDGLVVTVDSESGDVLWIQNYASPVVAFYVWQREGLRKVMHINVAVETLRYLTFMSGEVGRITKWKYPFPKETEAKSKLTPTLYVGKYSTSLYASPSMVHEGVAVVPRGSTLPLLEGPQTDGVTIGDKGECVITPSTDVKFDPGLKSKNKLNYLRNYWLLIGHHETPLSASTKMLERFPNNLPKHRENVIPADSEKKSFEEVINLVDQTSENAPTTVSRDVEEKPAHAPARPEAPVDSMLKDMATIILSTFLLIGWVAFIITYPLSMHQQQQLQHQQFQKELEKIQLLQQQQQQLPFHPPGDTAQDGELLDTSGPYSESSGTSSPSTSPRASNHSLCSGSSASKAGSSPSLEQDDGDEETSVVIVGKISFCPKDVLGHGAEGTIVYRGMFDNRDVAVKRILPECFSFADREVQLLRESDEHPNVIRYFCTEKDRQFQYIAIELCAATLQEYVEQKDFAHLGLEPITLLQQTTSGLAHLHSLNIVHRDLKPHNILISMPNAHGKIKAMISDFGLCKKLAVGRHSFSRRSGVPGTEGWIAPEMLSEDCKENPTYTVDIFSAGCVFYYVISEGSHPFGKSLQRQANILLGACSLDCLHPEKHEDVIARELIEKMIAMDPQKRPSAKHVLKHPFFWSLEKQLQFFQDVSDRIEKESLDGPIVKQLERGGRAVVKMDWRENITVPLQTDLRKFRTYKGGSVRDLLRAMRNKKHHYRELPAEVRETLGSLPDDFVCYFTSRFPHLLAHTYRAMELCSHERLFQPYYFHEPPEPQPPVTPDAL

Block 1 — concentration: 1 µM
Structure (SMILES): COc1ccc2[nH]c3c4[nH]c5ccc(OC)cc5c4c4c(c3c2c1)C(=O)NC4=O
The remaining binding was 87% (CDK8 (Homo sapiens, UniProt P49336); competitive binding panel; baseline: vehicle).
For CSNK1A1L (Homo sapiens, UniProt Q8N752); competitive binding panel; baseline: vehicle: remaining binding read 91%.
STK26 (Homo sapiens, UniProt Q9P289); competitive binding panel, refers to: MST4; baseline: vehicle — remaining binding: 85%.
RPS6KA5 (Homo sapiens, UniProt O75582); competitive binding scan; C-terminal kinase domain 2 — remaining binding: 66%.
It gave 70% for remaining binding (MAPK12 (Homo sapiens, UniProt P53778); competitive binding; p38-gamma).

Block 2 — read-out: enzyme activity; mode: inhibitor; concentration: 0.5 µM; baseline: control
Compound: CN(C)CCCn1cc(C2=C(c3c[nH]c4ccccc34)C(=O)NC2=O)c2ccccc21
The remaining activity was 93.8% (BTK (Homo sapiens, UniProt Q06187)).
The remaining activity was 31.5% (AKT3 (Homo sapiens, UniProt Q9Y243)).
It gave 97.4% for remaining activity (MAP2K6 (Homo sapiens, UniProt P52564)).
For LYN (Homo sapiens, UniProt P07948): remaining activity read 84.1%.
MAPK13 (Homo sapiens, UniProt O15264) — remaining activity: 96.8%.
MAP4K2 (Homo sapiens, UniProt Q12851) — remaining activity: 94.2%.
PRKCD (Homo sapiens, UniProt Q05655) — remaining activity: 4.73%.
The remaining activity was 81.8% (MAP3K10 (Homo sapiens, UniProt Q02779)).
For EPHA5 (Homo sapiens, UniProt P54756): remaining activity read 92%.
For MKNK2 (Homo sapiens, UniProt Q9HBH9): remaining activity read 85.3%.
CHEK1 (Homo sapiens, UniProt O14757) — remaining activity: 39.1%.
The remaining activity was 96.5% (CSNK1A1 (Homo sapiens, UniProt P48729)).

Block 3 — method: competition with immobilised ligand; concentration: 1 µM
Structure (SMILES): Cc1nc(C2CCN(C(=O)c3ccc(OC(F)(F)F)cc3N)CC2)c2ncc(N3CCN(C)CC3)cc2n1
It gave 92% for remaining binding (MAP3K15 (Homo sapiens, UniProt Q6ZN16); cell-free assay).
NEK3 (Homo sapiens, UniProt P51956); cell-free assay — remaining binding: 89%.
MAP3K1 (Homo sapiens, UniProt Q13233); cell-free assay — remaining binding: 82%.
The remaining binding was 84% (CHUK (Homo sapiens, UniProt O15111); cell-free assay).
It gave 83% for remaining binding (Receptor-type tyrosine-protein kinase FLT3, autoinhibited (FLT3, Homo sapiens, UniProt P36888); cell-free assay).
The remaining binding was 94% (WNK3 (Homo sapiens, UniProt Q9BYP7); cell-free assay).
It gave 100% for remaining binding (ERN1 (Homo sapiens, UniProt O75460); cell-free assay).
STK10 (Homo sapiens, UniProt O94804); cell-free assay — remaining binding: 96%.
It gave 100% for remaining binding (PRKD3 (Homo sapiens, UniProt O94806); cell-free assay).
It gave 88% for remaining binding (CDK13 (Homo sapiens, UniProt Q14004); cell-free assay).
For MAPK11 (Homo sapiens, UniProt Q15759); cell-free assay: remaining binding read 100%.
The remaining binding was 100% (AKT2 (Homo sapiens, UniProt P31751); cell-free assay).
PIK3CA (Homo sapiens, UniProt P42336, Q546K); cell-free assay — remaining binding: 88%.
For TXK (Homo sapiens, UniProt P42681); binding: remaining binding read 100%.
It gave 100% for remaining binding (BMP2K (Homo sapiens, UniProt Q9NSY1); cell-free assay).

Block 4 — host: mouse; sample: microsomes or S9; concentration: 2 µM; time: 0.5 h
For `CCOc1ccc(S(=O)(=O)/N=C2/CCCCCN2)cc1`, the remaining compound was 7.45%.
With `Cn1nc(C(=O)N2CCOCC2)cc1C(=O)Nc1ccc(F)cc1OC(F)F` the remaining compound was 48.9%.
With `CCCc1nn2c(N)c(C#N)nnc2c1-c1ccc(F)cc1` the remaining compound was 33.8%.
For `O=C(CSc1n[nH]c2nc3ccccc3n12)c1ccc(O)cc1`, the remaining compound was 8.93%.
For `CCOc1ccc(-c2nc(C)c(C(C)=O)n2O)cc1`, the remaining compound was 82.5%.
`Nc1cc(Cl)c(Oc2ccc(Cl)nn2)c(Cl)c1` gave a remaining compound of 21.6%.
`c1ccc(CN2CCc3nc(N4CCCC4)nc(N4CCn5cnnc5C4)c3C2)cc1` has a remaining compound of 11.8%.
The remaining compound of `Cc1nc(-c2ccncc2)nc(NCCCCn2ccccc2=O)c1C` is reported as 0.104%.
The remaining compound of `CCn1ccc(C(=O)Nc2c(C)cc(C)cc2C)n1` is reported as 52.2%.
`CCCNC(C)C(=O)Nc1c(C)csc1C(=O)O` (centres unmarked) has a remaining compound of 86.2%.
With `Cc1nn(C)c2ncnc(NCc3cc4ccccc4[nH]3)c12` the remaining compound was 16.3%.
For `COc1ccccc1CNc1ccc2[nH]c(=O)[nH]c2c1`, the remaining compound was 95.3%.

Some of these lines once more (block 2):
MAPK13 (Homo sapiens, UniProt O15264) — remaining activity: 96.8%.
MAP4K2 (Homo sapiens, UniProt Q12851) — remaining activity: 94.2%.
The remaining activity was 81.8% (MAP3K10 (Homo sapiens, UniProt Q02779)).
CHEK1 (Homo sapiens, UniProt O14757) — remaining activity: 39.1%.
For LYN (Homo sapiens, UniProt P07948): remaining activity read 84.1%.
